Measured values gathered from unrelated publications.
Parts stem from different laboratories: compare values within a part only.
UniProt Q9BUB5, sequence (whole entry, looked up): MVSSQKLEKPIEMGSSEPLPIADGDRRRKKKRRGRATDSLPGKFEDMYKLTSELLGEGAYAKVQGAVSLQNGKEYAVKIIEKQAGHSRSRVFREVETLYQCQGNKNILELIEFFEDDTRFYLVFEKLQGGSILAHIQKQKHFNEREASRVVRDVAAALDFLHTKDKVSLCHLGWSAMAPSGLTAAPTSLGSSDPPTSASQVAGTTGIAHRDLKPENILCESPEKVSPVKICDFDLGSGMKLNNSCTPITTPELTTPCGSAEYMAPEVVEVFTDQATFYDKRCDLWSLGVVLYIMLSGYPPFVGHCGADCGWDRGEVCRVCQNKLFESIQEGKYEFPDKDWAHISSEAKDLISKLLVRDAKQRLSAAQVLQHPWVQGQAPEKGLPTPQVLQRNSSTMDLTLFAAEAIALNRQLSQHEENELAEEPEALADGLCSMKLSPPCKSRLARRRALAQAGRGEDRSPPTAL
UniProt Q9Y6M4, sequence (whole entry, looked up): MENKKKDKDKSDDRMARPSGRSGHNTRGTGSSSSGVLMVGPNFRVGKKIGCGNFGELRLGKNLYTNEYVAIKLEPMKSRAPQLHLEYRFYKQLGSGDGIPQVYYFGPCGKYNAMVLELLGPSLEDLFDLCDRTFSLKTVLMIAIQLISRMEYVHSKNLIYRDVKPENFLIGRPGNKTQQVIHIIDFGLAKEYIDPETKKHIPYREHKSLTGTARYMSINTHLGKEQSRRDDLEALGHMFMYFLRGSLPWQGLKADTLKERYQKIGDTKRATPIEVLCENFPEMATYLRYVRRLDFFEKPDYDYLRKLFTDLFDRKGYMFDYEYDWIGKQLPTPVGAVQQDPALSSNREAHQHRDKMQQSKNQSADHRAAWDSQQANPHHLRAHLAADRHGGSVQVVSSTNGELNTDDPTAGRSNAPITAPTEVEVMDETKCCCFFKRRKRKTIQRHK
UniProt P49137, sequence (whole entry, looked up): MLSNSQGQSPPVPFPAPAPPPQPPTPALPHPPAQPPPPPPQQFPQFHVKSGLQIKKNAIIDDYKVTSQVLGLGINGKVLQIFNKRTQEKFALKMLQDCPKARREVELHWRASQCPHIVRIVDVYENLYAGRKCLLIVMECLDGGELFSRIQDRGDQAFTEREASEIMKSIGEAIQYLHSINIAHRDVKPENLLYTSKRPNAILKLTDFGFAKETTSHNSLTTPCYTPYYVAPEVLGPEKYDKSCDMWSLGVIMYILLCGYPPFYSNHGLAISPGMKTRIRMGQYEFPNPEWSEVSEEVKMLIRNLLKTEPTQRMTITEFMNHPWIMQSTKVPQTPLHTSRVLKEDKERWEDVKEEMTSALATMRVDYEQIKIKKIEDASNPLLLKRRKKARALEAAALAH
UniProt Q8WTQ7, sequence (whole entry, looked up): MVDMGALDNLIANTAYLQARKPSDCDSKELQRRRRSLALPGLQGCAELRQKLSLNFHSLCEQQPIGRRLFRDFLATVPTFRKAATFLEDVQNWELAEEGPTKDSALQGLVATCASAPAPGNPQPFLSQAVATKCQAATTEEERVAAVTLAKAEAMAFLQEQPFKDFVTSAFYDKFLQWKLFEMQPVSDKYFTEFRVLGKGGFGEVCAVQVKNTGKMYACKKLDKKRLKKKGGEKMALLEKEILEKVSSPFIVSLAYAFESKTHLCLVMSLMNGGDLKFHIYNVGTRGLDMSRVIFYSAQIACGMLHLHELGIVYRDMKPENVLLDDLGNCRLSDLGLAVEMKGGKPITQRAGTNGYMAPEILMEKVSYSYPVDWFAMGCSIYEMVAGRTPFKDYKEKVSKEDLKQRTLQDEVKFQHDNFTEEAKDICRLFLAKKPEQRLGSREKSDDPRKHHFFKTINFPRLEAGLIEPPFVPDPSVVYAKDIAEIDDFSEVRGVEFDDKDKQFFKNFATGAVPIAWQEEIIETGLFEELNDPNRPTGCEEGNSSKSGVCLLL
UniProt O94921, sequence (whole entry, looked up): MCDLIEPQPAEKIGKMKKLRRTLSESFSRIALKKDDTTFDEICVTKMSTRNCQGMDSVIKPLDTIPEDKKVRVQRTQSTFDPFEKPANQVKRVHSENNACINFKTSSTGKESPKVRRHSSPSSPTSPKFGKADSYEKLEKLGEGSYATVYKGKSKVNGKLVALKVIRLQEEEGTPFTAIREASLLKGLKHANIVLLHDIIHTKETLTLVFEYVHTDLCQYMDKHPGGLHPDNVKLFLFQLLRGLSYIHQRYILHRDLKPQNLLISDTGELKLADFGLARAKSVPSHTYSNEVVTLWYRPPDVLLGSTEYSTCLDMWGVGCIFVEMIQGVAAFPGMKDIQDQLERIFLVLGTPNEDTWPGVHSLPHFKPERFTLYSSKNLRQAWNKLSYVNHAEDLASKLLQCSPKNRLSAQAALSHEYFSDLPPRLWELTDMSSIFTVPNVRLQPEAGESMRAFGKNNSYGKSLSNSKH
UniProt P49841, sequence (whole entry, looked up): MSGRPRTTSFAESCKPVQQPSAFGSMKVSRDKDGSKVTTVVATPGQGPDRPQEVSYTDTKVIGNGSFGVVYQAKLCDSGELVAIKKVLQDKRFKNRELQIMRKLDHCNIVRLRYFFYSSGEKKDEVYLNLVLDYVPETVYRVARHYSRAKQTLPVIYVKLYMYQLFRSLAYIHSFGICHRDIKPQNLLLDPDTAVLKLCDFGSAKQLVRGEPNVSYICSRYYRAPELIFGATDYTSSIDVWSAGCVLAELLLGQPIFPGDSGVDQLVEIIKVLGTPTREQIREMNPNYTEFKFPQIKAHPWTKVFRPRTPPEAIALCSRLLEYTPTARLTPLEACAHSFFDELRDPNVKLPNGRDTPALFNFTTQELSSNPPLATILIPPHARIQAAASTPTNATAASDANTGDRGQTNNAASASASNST
UniProt Q9UHD2, sequence (whole entry, looked up): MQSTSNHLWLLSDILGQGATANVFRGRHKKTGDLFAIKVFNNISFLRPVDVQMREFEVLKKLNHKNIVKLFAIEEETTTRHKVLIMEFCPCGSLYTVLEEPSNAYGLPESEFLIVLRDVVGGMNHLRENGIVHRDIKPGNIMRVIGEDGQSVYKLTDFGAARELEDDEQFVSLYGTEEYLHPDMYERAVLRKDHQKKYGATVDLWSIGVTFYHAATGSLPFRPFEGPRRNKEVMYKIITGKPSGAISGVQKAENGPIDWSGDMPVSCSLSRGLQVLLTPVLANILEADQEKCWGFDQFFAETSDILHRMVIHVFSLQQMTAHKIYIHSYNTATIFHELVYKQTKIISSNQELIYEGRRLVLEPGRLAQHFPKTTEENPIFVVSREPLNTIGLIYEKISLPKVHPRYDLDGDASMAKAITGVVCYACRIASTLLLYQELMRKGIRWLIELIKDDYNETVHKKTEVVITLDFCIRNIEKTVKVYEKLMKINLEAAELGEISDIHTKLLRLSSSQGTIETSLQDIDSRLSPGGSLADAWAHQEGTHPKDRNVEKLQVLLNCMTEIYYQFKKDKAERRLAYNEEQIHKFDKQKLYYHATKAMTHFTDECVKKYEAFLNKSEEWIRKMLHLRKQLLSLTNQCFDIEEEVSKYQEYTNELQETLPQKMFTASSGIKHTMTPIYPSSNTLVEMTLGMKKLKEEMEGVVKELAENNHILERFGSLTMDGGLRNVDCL
UniProt Q6PHR2, sequence (whole entry, looked up): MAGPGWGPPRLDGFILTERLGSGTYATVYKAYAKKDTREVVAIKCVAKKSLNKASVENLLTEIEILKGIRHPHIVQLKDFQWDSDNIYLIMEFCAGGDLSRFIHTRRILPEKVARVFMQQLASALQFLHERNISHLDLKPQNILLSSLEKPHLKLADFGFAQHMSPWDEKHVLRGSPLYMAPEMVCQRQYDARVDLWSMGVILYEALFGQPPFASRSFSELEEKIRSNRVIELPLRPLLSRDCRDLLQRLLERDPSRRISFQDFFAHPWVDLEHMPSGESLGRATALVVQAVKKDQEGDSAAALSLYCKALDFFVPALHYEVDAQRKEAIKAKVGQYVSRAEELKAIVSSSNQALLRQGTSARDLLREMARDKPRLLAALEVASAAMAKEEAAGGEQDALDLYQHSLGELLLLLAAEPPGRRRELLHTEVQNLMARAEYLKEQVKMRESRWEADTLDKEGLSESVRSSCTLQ
UniProt P36896, sequence (whole entry, looked up): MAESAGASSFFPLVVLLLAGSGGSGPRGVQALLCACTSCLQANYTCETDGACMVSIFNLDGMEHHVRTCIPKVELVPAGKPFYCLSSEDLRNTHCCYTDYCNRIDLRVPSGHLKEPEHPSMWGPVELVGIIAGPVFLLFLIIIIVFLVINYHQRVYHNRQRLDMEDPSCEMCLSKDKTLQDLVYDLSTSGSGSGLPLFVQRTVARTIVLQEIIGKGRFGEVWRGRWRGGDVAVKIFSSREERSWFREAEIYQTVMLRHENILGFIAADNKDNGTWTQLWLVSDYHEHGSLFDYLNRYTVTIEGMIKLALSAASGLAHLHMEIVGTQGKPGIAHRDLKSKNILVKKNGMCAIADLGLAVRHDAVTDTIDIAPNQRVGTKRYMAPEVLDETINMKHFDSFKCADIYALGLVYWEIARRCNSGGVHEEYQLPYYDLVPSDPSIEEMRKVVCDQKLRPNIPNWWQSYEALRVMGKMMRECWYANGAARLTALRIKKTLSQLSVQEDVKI

Study 1
Target: PABPC1L2, full length, GST fusion (mouse, UniProt A0ABA7IW68)
Technique: RNAcompete
Molecule type: RNA
Medium: in vitro
Tested at: 20 nM
Setting: 7-mer, probes averaged, single round
Relative to: mean of 7-mers
Reading: higher = stronger binding
Target sequence (chain): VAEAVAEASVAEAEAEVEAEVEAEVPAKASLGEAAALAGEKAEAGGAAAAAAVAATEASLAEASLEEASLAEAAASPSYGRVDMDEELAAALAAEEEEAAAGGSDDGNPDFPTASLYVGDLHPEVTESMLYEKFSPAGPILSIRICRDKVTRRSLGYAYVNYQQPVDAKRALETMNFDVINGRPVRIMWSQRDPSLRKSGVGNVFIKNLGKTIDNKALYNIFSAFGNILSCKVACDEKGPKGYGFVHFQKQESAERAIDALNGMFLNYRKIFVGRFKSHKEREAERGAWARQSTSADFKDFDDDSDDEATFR
With `AUUGCCA` the 7-mer Z-score was -0.144.
With `GACGCCC` the 7-mer Z-score was -0.3.
With `UGUUUGA` the 7-mer Z-score was -0.496.
`UUGUACG` gave a 7-mer Z-score of -0.224.
`UGUACCG` has a 7-mer Z-score of -0.257.
For `UCUUGAG`, the 7-mer Z-score was -0.342.
The 7-mer Z-score of `UAACUAC` is reported as -0.215.
`CAGAACC` has a 7-mer Z-score of -0.112.

Study 2
SMILES: Oc1ccc(Nc2nc(-c3ccc(Cl)cc3)cs2)cc1
Observed: enzyme activity
Action: inhibitor
Tested at: 0.5 µM
Relative to: control
It gave 103% for remaining activity (CSNK1G3 (Homo sapiens, UniProt Q9Y6M4)).
For TAOK2 (Homo sapiens, UniProt Q9UL54): remaining activity read 101%.
The remaining activity was 109% (GRK7 (Homo sapiens, UniProt Q8WTQ7)).
ULK3 (Homo sapiens, UniProt Q6PHR2) — remaining activity: 94.4%.
For MERTK (Homo sapiens, UniProt Q12866): remaining activity read 97.1%.
For ACVR1B (Homo sapiens, UniProt P36896): remaining activity read 89.5%.
The remaining activity was 108% (MAP3K5 (Homo sapiens, UniProt Q99683)).
The remaining activity was 95.2% (TBK1 (Homo sapiens, UniProt Q9UHD2)).
FGFR3 (Homo sapiens, UniProt P22607) — remaining activity: 96.5%.
GSK3B (Homo sapiens, UniProt P49841) — remaining activity: 110%.
EPHA3 (Homo sapiens, UniProt P29320) — remaining activity: 110%.
MAPKAPK2 (Homo sapiens, UniProt P49137) — remaining activity: 100%.
For WEE1 (Homo sapiens, UniProt P30291): remaining activity read 93.2%.
The remaining activity was 106% (FRK (Homo sapiens, UniProt P42685)).

Study 3
Target: Interferon regulatory factor 3, full length, phosphomimetic (IRF3, Homo sapiens, UniProt Q14653, residues 1-427, S386D/S396D/S398D/S402D/T404D/S405D)
UniProt Q14653, sequence (whole entry, unmodified, looked up): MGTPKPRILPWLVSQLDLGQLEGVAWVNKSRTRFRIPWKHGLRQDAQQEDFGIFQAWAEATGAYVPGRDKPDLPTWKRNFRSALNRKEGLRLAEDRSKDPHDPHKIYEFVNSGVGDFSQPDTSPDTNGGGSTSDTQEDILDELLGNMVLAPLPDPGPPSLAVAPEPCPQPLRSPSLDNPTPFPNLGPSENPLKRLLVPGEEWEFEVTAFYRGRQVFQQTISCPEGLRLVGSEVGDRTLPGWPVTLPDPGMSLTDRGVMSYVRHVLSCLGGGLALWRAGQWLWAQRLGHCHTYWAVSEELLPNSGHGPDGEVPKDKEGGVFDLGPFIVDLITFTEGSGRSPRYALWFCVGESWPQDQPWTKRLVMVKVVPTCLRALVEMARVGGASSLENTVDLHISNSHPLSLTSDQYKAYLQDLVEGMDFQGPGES
Technique: protein-binding microarray
Molecule type: double-stranded DNA, one strand shown
Medium: in vitro
Tested at: 2540 nM top
Setting: 60-bp whole probe
With: salmon DNA 0.4 mg/ml
Relative to: random background probes
Reading: higher = stronger binding
Constant ends, left off below: GCCTAGCAC … GTCTTGATTCGCTTGACGCTGCTG
`TTAGAACTGAGTTCCGATTAGTGCTAG` — result for “fitted relative affinity”: 1.2 z-score.
`TTAGGTCCCGGTCTCGGTTAGTGCTAG` — result for “fitted relative affinity”: 0.629 z-score.
For `GACGATCTCAGTACCGAGACGTGCTAG`, “fitted relative affinity” read 0.624 z-score.
Under “fitted relative affinity”, `GACGGTCTCGGTCTGGGGACGTGCTAG` is recorded as 0.381 z-score.
`GACGGTCTCGGTTCCGGGACGTGCTAG` — result for “fitted relative affinity”: 2.56 z-score.
`TTAGGTTTCGGACTGAGTTAGTGCTAG`: “fitted relative affinity” 4.13 z-score.
`GACGGTATAGACTTTCGGGACGTGCTA` — result for “fitted relative affinity”: 0.168 z-score.
For `CACAGAACATATTAGTATATGTGCTAG`, “fitted relative affinity” read 0.567 z-score.

Study 4
Compound: C[C@H](c1ccc(F)cc1)N(Cc1cccc(C(=O)O)c1)C(=O)c1cnc2ccccc2c1
Observed: cell-free assay
Technique: competition with immobilised ligand
Tested at: 1 µM
MKNK1 (Homo sapiens, UniProt Q9BUB5) — remaining binding: 100%.
CDK15 (Homo sapiens, UniProt Q96Q40) — remaining binding: 100%.
It gave 100% for remaining binding (CDK14 (Homo sapiens, UniProt O94921)).
For Macrophage colony-stimulating factor 1 receptor, autoinhibited (CSF1R, Homo sapiens, UniProt P07333): remaining binding read 65%.

Excerpt of the above (study 4):
It gave 100% for remaining binding (CDK14 (Homo sapiens, UniProt O94921)).
CDK15 (Homo sapiens, UniProt Q96Q40) — remaining binding: 100%.
MKNK1 (Homo sapiens, UniProt Q9BUB5) — remaining binding: 100%.
For Macrophage colony-stimulating factor 1 receptor, autoinhibited (CSF1R, Homo sapiens, UniProt P07333): remaining binding read 65%.
